# Experimental data from different studies.
# A part holds a random share of what one study measured. Positions count from the first letter of the parent shown.

# Study 1 — target: NFE2, bZIP domain (human); method: DHFR protein complementation; medium: yeast; baseline: wild-type JUN-FOS pair; direction: higher = stronger binding
# Notes: single substitutions, most at no-binding floor
# Starting sequence: JUN, bZIP domain (human); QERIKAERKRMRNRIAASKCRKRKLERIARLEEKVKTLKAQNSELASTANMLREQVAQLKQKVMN; partner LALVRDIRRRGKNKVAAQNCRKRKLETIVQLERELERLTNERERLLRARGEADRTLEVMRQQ
Change,binding fitness [natural log]
K34T,-1.37
L45A,-1.51
T48A,-1.29
A46N,-1.51
K36S,-1.53
A46G,-1.45
A49S,-1.49
N42E,-1.44

# Study 2 — method: Spec-seq; form: double-stranded DNA, one strand shown; medium: in vitro; tested at: not given; notes: whole probe, mean of replicates; baseline: not given; direction: lower = stronger binding; shared flanks, not repeated: GAGTCGTCTCGTCAGCAC … CCGTAGAGCACTCAGGTC
# Target: POU, POU domain (Salpingoeca helianthica)
# Residues (chain): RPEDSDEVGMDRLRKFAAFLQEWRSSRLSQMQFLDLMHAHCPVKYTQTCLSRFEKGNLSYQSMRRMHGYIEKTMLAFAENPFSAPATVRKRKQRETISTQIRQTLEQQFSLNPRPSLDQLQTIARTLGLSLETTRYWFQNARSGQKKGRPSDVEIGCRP
Sequence,relative binding energy
ATAGATAT,0.703 ln ratio
ATGCATAG,1.25 ln ratio
AATCTAAT,0.355 ln ratio
CGGTTAAT,-0.298 ln ratio
AAAATAAT,0.0272 ln ratio
AGTTTAAT,-0.0993 ln ratio
TGGCTAAT,0.54 ln ratio
ATGCCCAC,1.28 ln ratio

# Study 3 — method: protein binding microarray; form: double-stranded DNA, one strand shown; medium: in vitro; tested at: not given; baseline: not given; direction: higher = stronger binding
# Target: Histone acetyltransferase KAT6A, winged helix 1, GST fusion (KAT6A, Homo sapiens, UniProt Q92794, residues 1-85)
# Notes: 8-mer, flanks averaged, mean of 2 arrays, mostly near background
# Target sequence (chain): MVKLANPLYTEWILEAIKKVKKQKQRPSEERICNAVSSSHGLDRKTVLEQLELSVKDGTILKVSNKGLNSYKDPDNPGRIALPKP
Sequence,E-score
ACTACCCC,-0.0984
AATCCCAA,-0.212
ACCGTTAC,0.0359
GAGTGTGC,-0.131
GGCTAAAC,0.0888
GGGACTAC,0.0399
CCATTTGC,-0.145
AGACACGC,0.203

# Single results of other studies
Compound,system,setting,quantity,value
CCOC(C#Cc1cncc(I)c1N)OCC,"mouse, microsomes or S9","2 µM, 0.5 h",remaining compound,1.44%

# Excerpt of the above (study 3):
Sequence,E-score
GAGTGTGC,-0.131
GGCTAAAC,0.0888
GGGACTAC,0.0399
